{"data": "Published values from different studies", "note": "A part holds a random share of what one study measured."}
{"data": "Series 1", "target": "Histone acetyltransferase KAT6A, winged helix 2, GST fusion (KAT6A, Homo sapiens, UniProt Q92794, residues 85-181)", "technique": "protein binding microarray", "molecule type": "double-stranded DNA, one strand shown", "sample": "in vitro", "tested at": "not given", "notes": "8-mer, flanks averaged, mean of 2 arrays, mostly near background", "relative to": "not given", "reading": "higher = stronger binding", "Target sequence (chain)": "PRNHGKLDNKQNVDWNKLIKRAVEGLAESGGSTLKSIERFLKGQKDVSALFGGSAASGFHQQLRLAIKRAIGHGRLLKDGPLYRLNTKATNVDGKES"}
{"Sequence": "ATGAATAG", "E-score": -0.101}
{"Sequence": "CAGGTACA", "E-score": -0.111}
{"Sequence": "ATGCGCAA", "E-score": -0.0508}
{"Sequence": "GCCCGACA", "E-score": 0.152}
{"Sequence": "CACGTTAG", "E-score": -0.211}
{"Sequence": "CAGCCTGA", "E-score": 0.0807}
{"Sequence": "GAGCGCCC", "E-score": 0.119}
{"Sequence": "AATACGCG", "E-score": -0.0221}
{"data": "Series 2", "target": "Centromere-binding protein 1, full length, His-tagged (CBF1, Saccharomyces cerevisiae, UniProt P17106, residues 1-351)", "technique": "competition protein-binding microarray", "molecule type": "double-stranded DNA, one strand shown", "sample": "in vitro", "tested at": "2 µM", "notes": "whole 60-bp probe, lowest competitor level", "with": "Pho4 competitor, 0.05 µM", "reading": "higher = stronger binding", "UniProt P17106, sequence (whole entry, looked up)": "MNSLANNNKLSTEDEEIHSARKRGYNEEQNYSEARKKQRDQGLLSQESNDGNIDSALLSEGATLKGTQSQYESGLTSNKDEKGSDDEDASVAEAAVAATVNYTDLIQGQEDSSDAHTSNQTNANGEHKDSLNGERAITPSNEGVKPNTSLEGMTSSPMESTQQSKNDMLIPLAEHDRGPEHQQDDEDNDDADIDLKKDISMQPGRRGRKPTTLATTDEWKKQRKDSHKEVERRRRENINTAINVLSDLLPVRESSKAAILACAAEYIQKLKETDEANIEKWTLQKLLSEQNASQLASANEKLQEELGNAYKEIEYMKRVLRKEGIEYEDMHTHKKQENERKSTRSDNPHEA"}
{"Sequence": "CTGGAACTAGATCGGCACGCAACTTTTGTGGGCGAGGTCTTGATTCGCTTGACGCTGCTG", "fluorescence intensity": "68.1 a.u."}
{"Sequence": "CATACCCAACCTTGAGAGGTGGGTGAAGATATTTGTGTCTTGATTCGCTTGACGCTGCTG", "fluorescence intensity": "65 a.u."}
{"Sequence": "GAAACTCCAAGACGGTACGTGAGATTTTGGAGAAGAGTCTTGATTCGCTTGACGCTGCTG", "fluorescence intensity": "65.4 a.u."}
{"Sequence": "GCATTATACCTAAAGCACGCAGAGAAACCTCTCTTTGTCTTGATTCGCTTGACGCTGCTG", "fluorescence intensity": "69.9 a.u."}
{"data": "Series 3", "target": "Ras GTPase-activating protein-binding protein 1, C-terminal RGG region (G3BP1, Homo sapiens, UniProt Q13283)", "technique": "RNA Bind-n-Seq", "molecule type": "RNA", "sample": "in vitro", "tested at": "1 µM", "notes": "whole 134-nt RNA, ends assumed", "with": "150 mM KCl", "relative to": "input library", "reading": "higher = stronger binding", "UniProt Q13283, sequence (whole entry, looked up)": "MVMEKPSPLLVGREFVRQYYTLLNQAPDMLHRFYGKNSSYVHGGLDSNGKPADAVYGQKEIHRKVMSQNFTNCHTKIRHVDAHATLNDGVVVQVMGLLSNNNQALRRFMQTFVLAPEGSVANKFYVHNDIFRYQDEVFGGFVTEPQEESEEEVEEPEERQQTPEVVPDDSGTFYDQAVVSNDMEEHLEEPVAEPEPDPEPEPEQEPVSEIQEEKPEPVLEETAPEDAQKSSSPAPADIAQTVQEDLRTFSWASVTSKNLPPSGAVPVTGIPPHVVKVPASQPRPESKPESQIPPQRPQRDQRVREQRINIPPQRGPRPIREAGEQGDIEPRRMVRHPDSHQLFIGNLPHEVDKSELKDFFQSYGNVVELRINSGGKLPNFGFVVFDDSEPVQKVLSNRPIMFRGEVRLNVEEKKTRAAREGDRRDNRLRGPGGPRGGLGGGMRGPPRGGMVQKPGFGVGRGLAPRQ"}
{"Sequence": "GGGAGUUCUACAGUCCGACGAUCUCCUGUGCUACACAUCGUAUGUACCGAAUCGGGGUUUUUGGGGAAAAAAAGGGGUGGGGAAAGUAUUAUGUUACGCCGUUCGGAUCUGCAUGGAAUUCUCGGGUGUCAAGG", "log2 enrichment": 1.39}
{"Sequence": "GGGAGUUCUACAGUCCGACGAUCUCCUGUGCUACACAUCGUAUGUACCGAAUCGGCCCCCCGGGGCCCCCCGGCCCCCCGGGGAAAGUAUUAUGUUACGCCGUUCGGAUCUGCUGGAAUUCUCGGGUGUCAAGG", "log2 enrichment": -1.41}
{"Sequence": "GGGAGUUCUACAGUCCGACGAUCAGUCCUGUGCUACACAUCGUAUGUACCGAAUCGGGAAAAAAAGGGUGGGAAAAAGGGAAAGUAUUAUGUUACGCCGUUCGGAUCUGCACUUGGAAUUCUCGGGUGUCAAGG", "log2 enrichment": 0.501}
{"Sequence": "GGGAGUUCUACAGUCCGACGAUCCACAGACAACACGCACCCACACAGACACAGAGGGAAGGGGUUGGGAUGGGGACAGGGUGCACAGCAGGGCGGGGUAGGACCCCAGCCCGUUGGAAUUCUCGGGUGUCAAGG", "log2 enrichment": -0.981}
{"data": "Other studies, line by line"}
{"Molecule": "PhoQ, residues 284 288 289 292 302 303 HSSMNL", "target": "PhoP, residues 12 14 15 18 19 SEGLL (Escherichia coli, UniProt P23836)", "assay": "Sort-seq, refers to: YFP reporter", "system": "E. coli", "conditions": "PhoQ-PhoP variant library, with: 10 µM Mg2+", "scale": "relative to: high Mg2+ state, higher = stronger signaling", "measurement": "fold induction", "result": 11.2}
{"note": "For quick reference, copied from above (series 1):"}
{"Sequence": "AATACGCG", "E-score": -0.0221}
